Results gathered from unrelated publications.
Every numbered part comes from another study and shows a few of its results, in no order. Substitutions count along the parent as printed.

Block 1 — method: RNA Bind-n-Seq; form: RNA; matrix: in vitro; tested at: 365 nM; relative to: no-protein control; reading: higher = stronger binding; measurement: RBNS enrichment (R)
Target: RNA binding protein fox-1 homolog 2, RRM domain, GST-SBP tag (RBFOX2, Homo sapiens, UniProt O43251-10, residues 100-194)
Setting: natural RNA segment, single round, ends assumed
Constant ends, left off below: GGGAGUUCUACAGUCCGACGAUC … UGGAAUUCUCGGGUGCCAA
Target sequence (chain): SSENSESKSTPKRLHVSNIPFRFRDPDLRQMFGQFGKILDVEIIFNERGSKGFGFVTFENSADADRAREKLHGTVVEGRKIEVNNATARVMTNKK
CUUAGAAGGUAGGAUUUUCUUCCCAGGGACCUCCUAUCACCCUACCCUGCUUCUUGAGGUCCCUGGAGCCCCAGGUGGGCUGAGGGGCAGGGAGCCGGCUGUGCCCAGUA: 0.389
AGGCGGGGAGGUGUUCAAAGACAUCUCCCUCAGUGCGGAUUUAUAUAUAUAUUUUUCCUUCACUGUGUCAAGUGGAAACAAAAACAAAAUCUUUCAAAAAAAAAAUCGGG: 0.566
CCGGUACCCUAGGCCAGGCGGAUGCCUCGACGGUGCCAACCACAGCGACCCGGGCGCCAGCCCAGGUCACCGAGCCCUACUGGCGCCGAGUGGGGCGCGUUUGUUCCUCA: 0.348
AAUUAUUUUUUUAAAAACGUAAUUUGUUUUUAAAAGAUGAGUCUCCAUUCAUUGGCUAAUCCAUACAGCAAAUAUUUGAGUGUUUGUGAUAUGGCAGUAAAAAUGUGAUU: 0.384
UCACUCACUCACUGGUGCUGGCCUAGCCCCAGUUCACUCUGGUGCCACAAUAAACCUGUAUCUAGCUUGUGCUCUGUGCCUCCCCGCUUUGCAUCCGGAAUGGUGGGACU: 1.28
GGCUCUGAGGGCGCUCCCUCCUCUCAGCCGGGCAGCCUGGCCUCUCCUGCCCAGACCUGCGGUCCCAGCAUCCCCCAGAGCCAGGGAACAGGCCCAGCGGGAGGGGGUUU: 0.343
CUGCCACGGGCCACUGGCUGCUGGGGACUGGGGACUGGGCAGAGACUGAGCCAGGCAGGAAGGCAGCAGCCUUCAGCCUCUCUGGCCCACUCGGACAACUUCCCAAGGCC: 0.3
CACACUUUCCUCUUAAGAUCCGUCAUCUCCAGGACAUAAGUCCCCAGCUCCCAACUGUGGCCAUGGCUUAGUUGCAUAAAAGCAGGCAUGACUGGCUGUUAGGAGGUAUG: 0.555
AGCUACGUCCCCCUUAGAAGGAUCACUGCAGCAGGUCACCGAGCAGGAGUCCCUCUGAGCGUCCCUUCUGUCUCGUUCUGCCCUAGCUGGCAGCAUAUGAACCAGGCAUG: 0.221
GGGUUCGCCUCCCCGAGGCUCCGUUUCCAAGCGAUUCAACGUUAACUACCUUUUUCUGUAUGCUUUCCAAAGUGUUUCCCUCAAUGUUUGAUUAAAACAUUUGCUCAUAG: 0.387
GAACUUGGAGGAGUUUGGCAAAGUCUGAAUAGGUCAACCUGCAGGCGUAACUAUUUUUGACCUAGUCAGUUUUUAAACAAUGUGCAUUUGAAGGAGUUAAUUAAAAGAGA: 0.588
ACAUAUUAGGGAAAAAAUGCAGUUAAGUUGAUCUUUCUUUUAAUUUGGUUUGGUUCAGCAGUCAGCAGUUACAUACAUAACACAACCCGCAAGGACAGUGAAUCCGCUCC: 0.316

Block 2 — method: RNA Bind-n-Seq; form: RNA; matrix: in vitro; tested at: 1 µM; setting: whole 134-nt RNA, ends assumed; added: 150 mM KCl; relative to: input library; reading: higher = stronger binding; measurement: log2 enrichment
Target: Ras GTPase-activating protein-binding protein 1, C-terminal RGG region (G3BP1, Homo sapiens, UniProt Q13283)
Chain of UniProt Q13283 (whole entry, looked up): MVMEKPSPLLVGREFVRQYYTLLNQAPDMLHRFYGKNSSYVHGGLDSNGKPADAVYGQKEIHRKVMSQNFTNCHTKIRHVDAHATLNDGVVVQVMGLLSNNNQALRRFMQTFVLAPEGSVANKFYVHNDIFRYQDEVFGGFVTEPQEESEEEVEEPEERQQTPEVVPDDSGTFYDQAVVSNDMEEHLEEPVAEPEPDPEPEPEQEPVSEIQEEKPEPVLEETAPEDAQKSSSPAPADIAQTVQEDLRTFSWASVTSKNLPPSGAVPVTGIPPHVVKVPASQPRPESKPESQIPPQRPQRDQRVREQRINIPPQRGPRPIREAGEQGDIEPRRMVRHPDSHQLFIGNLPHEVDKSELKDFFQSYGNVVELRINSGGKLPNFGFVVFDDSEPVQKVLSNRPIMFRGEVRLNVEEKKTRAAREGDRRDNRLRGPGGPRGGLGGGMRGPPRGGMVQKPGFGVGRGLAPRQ
Constant ends, left off below: GGGAGUUCUACAGUCCGACGAUC … UGGAAUUCUCGGGUGUCAAGG
AAGUCCUGUGCUACACAUCGUAUGUACCGAAUCGGAAAAGGGAAAAGGGAAAAGGGAAAGUAUUAUGUUACGCCGUUCGGAUCUGCACUU: -1.41
GCAGGAAGUAAAAACAAAUGGAAAUGCUUCGGAUAGUGGCAGGGGUGGGGGAAACUAAGGAAAGGGUGGGAUGGGAGUGGGUAAAGAGUU: 1.71
GUCCUGUGCUACACAUCGUAUGUACCGAAUCGGGGUUUUUGGGGUUUUUGGGUUUUUGGAAAGUAUUAUGUUACGCCGUUCGGAUCUGCA: -0.672
AAGUCCUGUGCUACACAUCGUAUGUACCGAAUCGUGUGUGUGUGUGUGUGUGUGUGAAAGUAUUAUGUUACGCCGUUCGGAUCUGCACUU: 1.29
AAGUCCUGUGCUACACAUCGUAUGUACCGAAUCGGGUUUGGGUUUUUUUGGGAGGGAAAGUAUUAUGUUACGCCGUUCGGAUCUGCACUU: 0.696
CCUCAAGUCCUGUGCUACACAUCGUAUGUACCGAAUCGGAGGUGGUUUUUGGAAAGUAUUAUGUUACGCCGUUCGGAUCUGCACUUCCAG: -0.546
GUCAAGAAAGAUCUUAAGACUGGUCAUUCAAAGGGGUUUGGCUUUGUUCGUUUUACGGAAUAUGAAACACAAGUGAAAGUAAUGUCACAG: -1.25
CUGUGCUACACAUCGUAUGUACCGAAUCGGGGAAAGGGGAAAAAAAGGGGAAAAAAAGGGGAAAGUAUUAUGUUACGCCGUUCGGAUCUG: -0.285
UCCUGUGCUACACAUCGUAUGUACCGAAUCGGUUUUUUGGUUUUUUGGGUUUUUUGGGGAAAGUAUUAUGUUACGCCGUUCGGAUCUGCA: -1.27
CAAAAUACCAAGGGAUUUAUAUGAGGAUGAGUUGGUGCCCCUUUUUGAGAAGGCCGGACCCAUUUGGGAUCUACGUCUUAUGAUGGAUCC: -1.27
AGUCCUGUGCUACACAUCGUAUGUACCGAAUCGGGGAGGGGAAAAAGGGGAAAGGGGAAAGUAUUAUGUUACGCCGUUCGGAUCUGCACU: 2.42
CUCAAGUCCUGUGCUACACAUCGUAUGUACCGAAUCGGAGGAAAGGUUUUUGGAAAGUAUUAUGUUACGCCGUUCGGAUCUGCACUUCCA: -1.29
GUCCUGUGCUACACAUCGUAUGUACCGAAUCGGGUUUGGGAAAAAAAGGGAAAAAGGGAAAGUAUUAUGUUACGCCGUUCGGAUCUGCAC: 0.0626
CCUCAAGUCCUGUGCUACACAUCGUAUGUACCGAAUCGGGUGGGUGGGUGGGAAAGUAUUAUGUUACGCCGUUCGGAUCUGCACUUCCAG: 1.81

Block 3 — method: protein-binding microarray; form: double-stranded DNA, one strand shown; matrix: in vitro; tested at: 250 nM; setting: 60-bp whole probe; added: salmon DNA 0.4 mg/ml; relative to: random background probes; reading: higher = stronger binding; measurement: log fluorescence; constant ends, left off below: GCCTAGCAC … GTCTTGATTCGCTTGACGCTGCTG
Target: Interferon regulatory factor 7, full length, phosphomimetic (IRF7, Homo sapiens, UniProt Q92985, residues 1-503, S101K/S471D/S472D/S475D/S476D/S477D/S483D/S484D/S487D)
Residues (chain): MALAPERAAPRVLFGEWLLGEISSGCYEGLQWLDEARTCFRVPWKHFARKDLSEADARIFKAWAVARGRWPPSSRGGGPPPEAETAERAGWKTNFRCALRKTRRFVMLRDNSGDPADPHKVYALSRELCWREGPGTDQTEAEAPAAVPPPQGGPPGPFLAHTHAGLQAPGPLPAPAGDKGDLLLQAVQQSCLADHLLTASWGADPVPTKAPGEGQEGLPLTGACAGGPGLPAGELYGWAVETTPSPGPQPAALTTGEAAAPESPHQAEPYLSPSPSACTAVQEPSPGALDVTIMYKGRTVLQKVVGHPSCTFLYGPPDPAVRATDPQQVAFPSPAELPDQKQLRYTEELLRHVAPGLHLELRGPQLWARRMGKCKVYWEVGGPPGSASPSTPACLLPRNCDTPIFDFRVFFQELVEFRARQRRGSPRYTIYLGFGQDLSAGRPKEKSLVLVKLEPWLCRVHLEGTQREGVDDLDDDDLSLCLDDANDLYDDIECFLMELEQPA
TCCTGTATGGATGTGTCTTAGTGCTAG: -0.309 z-score
GACGGTATGGGGTATCGGGACGTGCTA: -0.366 z-score
CTCTATTGCTTTCTCTTTCAGTGCTAG: 0.831 z-score
TTATATCTCAGTATCGATTAGTGCTAG: 1.36 z-score
TTAGGACTGGGGTTTCTGTTAGTGCTA: 1.25 z-score
GACGGTTTCGCTTCCGGGACGTGCTAG: 10.6 z-score
AGGATCCAGCCTGCAACCTCGTGCTAG: -0.283 z-score
TCATACATGTGTTTAAGACTGTGCTAG: 0.0562 z-score
GACGAACTGCTTCTCCTGACGTGCTAG: -0.185 z-score
GCTGACACTAACACAGTGGTGTGCTAG: -0.913 z-score
GACGTACTGGACTTTCGGGACGTGCTA: -0.125 z-score
TTAGATTTCGGGAGTGGATTAGTGCTA: 0.052 z-score
ATCTCTGTCCGTGCTCAGCTCGTGCTA: -0.249 z-score
ACAGGTTCTCTTTTATTTTTGTGCTAG: 2.29 z-score
GCACATGAGCCAAGCCTGCCGTGCTAG: -0.298 z-score
TTTGGTCTCGGTTTCGGTTAGTGCTAG: 11 z-score
TCAAGTCCCATGTTGCAGACTGTGCTA: 0.913 z-score
TTAGAGATCAGTATCGATTAGTGCTAG: 0.489 z-score
GTAGGTTCCCTTTTCCTTTAGTGCTAG: 3.4 z-score
TTAGTTTCCGGTTTCGGTTAGTGCTAG: 12.8 z-score
GACGGCTTCGGTATCGGGACGTGCTAG: -0.11 z-score
TTATTTATAAATTATCTTTAAGTGCTA: 1.11 z-score
GACGATCTCAGACTGGAGGCGTGCTAG: -0.322 z-score

Block 4 — method: DHFR PCA, deep sequencing; matrix: yeast; added: (+)-ABA 0.032 µM; relative to: wild-type fitted maximum; reading: higher = stronger binding; measurement: relative binding score
Target: ABI1, truncated, D143A, DHFR fusion (Arabidopsis thaliana)
Setting: methotrexate growth selection, single substitutions
Starting sequence: PYL1, truncated, DHFR fusion (Arabidopsis thaliana); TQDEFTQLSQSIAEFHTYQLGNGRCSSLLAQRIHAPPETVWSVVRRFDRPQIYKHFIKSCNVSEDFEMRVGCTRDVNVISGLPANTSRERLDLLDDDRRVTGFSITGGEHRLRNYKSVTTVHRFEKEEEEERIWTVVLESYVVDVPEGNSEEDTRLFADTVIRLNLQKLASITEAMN
W41T: 0.582%
V143E: 0.143%
L20T: 47%
D153W: -2.85%
W134M: 36.5%
E89L: -0.82%
V40M: 3.16%
G148S: -0.978%
F5R: 8.47%
D3K: 1.86%
T120C: 3.76%
P36H: 24.7%
R90F: 4.28%
V43M: 2.98%

Block 5 — target: CCNA2, cyclin fold, Cln2 fusion (human); method: yeast growth competition, sequencing; matrix: yeast; setting: strong parent motif; relative to: not given; reading: higher = stronger binding; measurement: normalised enrichment score
Starting sequence: CDKN1A docking peptide (human); SKACRRLFGPVDS; partner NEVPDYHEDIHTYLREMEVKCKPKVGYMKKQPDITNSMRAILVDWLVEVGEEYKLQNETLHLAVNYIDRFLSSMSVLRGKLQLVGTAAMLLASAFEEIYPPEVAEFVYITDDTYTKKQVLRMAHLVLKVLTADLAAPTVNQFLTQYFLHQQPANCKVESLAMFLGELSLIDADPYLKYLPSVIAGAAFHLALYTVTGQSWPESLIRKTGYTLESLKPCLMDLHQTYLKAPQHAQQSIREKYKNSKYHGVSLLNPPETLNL
SKACRRLEGPVDS [F8E]: -0.474
SKACRRLFYPVDS [G9Y]: 6.49
SKACRRLFMPVDS [G9M]: 5.67
SKACRRLFGNVDS [P10N]: 5.53
SKACSRLFGPVDS [R5S]: 0.595
SKAWRRLFGPVDS [C4W]: 1.86
SFACRRLFGPVDS [K2F]: 4.2
SKACRRLYGPVDS [F8Y]: 2.06
SKHCRRLFGPVDS [A3H]: 2.96
SKANRRLFGPVDS [C4N]: 3.28
SVACRRLFGPVDS [K2V]: 4.61
SKACRDLFGPVDS [R6D]: 1.3
SKACKRLFGPVDS [R5K]: 5.33
SKACRRLFFPVDS [G9F]: 5.88
SKACRRLFGPPDS [V11P]: 5.6
SKACRRLFGRVDS [P10R]: 4.74

A few entries again (block 4):
V143E: 0.143%
L20T: 47%
D153W: -2.85%
W134M: 36.5%
E89L: -0.82%
V40M: 3.16%
